Results gathered from unrelated publications.
Each line is one published result; not all experiments were run side by side. ± marks the error that the study gave.

SMILES	cell line	assay	conditions	how to read	endpoint	result
CC/C=C\C/C=C\C/C=C\C/C=C\C/C=C\C/C=C\CCC(=O)Nc1ccn(C2OC(CO)C(O)C2(F)F)c(=O)n1 (stereo not shown)	SR	NCI60 screen	–	–	CC50	> 100 µM
Cc1cccc(C)c1OCC(=O)N[C@@H](Cc1ccccc1)[C@H](C[C@H](Cc1ccccc1)NC(=O)[C@H](C(C)C)N1CCCNC1=O)OC(=O)[C@H](CC(C)C)NC(=O)[C@@H](N)Cc1cnc[nH]1	MDCK-MDR1, MDCK-MRP2 and Caco-2 cells	transport, inhibitor	25 µM, unlabelled L-histidine 10 mM, together with: [3H]-L-histidine	–	inhibition	~30%
COC(=O)C1=CO[C@@H](O)[C@@H]2C(Cn3cc(-c4ccc(OC)cc4)nn3)=CC[C@H]12	SK-N-SH	neuroprotection, MTT	0.3 µM, 24 h, together with: 250 µM H2O2	–	viability	75.2 ± 2.3%
F[P-](F)(F)(F)(F)F.F[P-](F)(F)(F)(F)F.[Ru+2].c1ccc(-c2ccccn2)nc1.c1ccc(-c2ccccn2)nc1.c1csc(-c2ccc(-c3ccc(-c4cc5cccnc5c5ncccc45)s3)s2)c1	SK-MEL-28	cell viability	visible light	relative to: dark EC50 over light EC50	phototherapeutic index	400
COC(=O)C1=CO[C@@H](OC(C)=O)[C@@H]2C(Cn3cc(CN(C)Cc4ccccc4)nn3)=CC[C@H]12	SK-N-SH	neuroprotection, MTT	0.3 µM, 24 h, together with: 250 µM H2O2	–	viability	52.9 ± 0.5%
COc1cc(C(=O)NCCOCCOCCOCCNC(=O)c2ccc([18F])nc2)ccc1NC(=O)C1NC(CC(C)(C)C)C(C#N)(c2ccc(Cl)cc2F)C1c1cccc(Cl)c1F (stereo not shown)	SJSA-1	–	–	relative to: added dose	uptake	~70%
CC(C)CC(O)(CC(C)C)c1cn(C(=O)N2CCCC2)nn1	mouse T-cells	N-terminal labeled proteins, N-terminal enrichment proteomics, refers to: NIBAN	1 nM, 6 h	relative to: DMSO	SILAC ratio	4.22 ± 0.28
O=C(c1ccc2ccccc2c1)c1cn(-c2ccccc2)nc1C1=Nn2c(Cc3nnc4n3N=C(c3nn(-c5ccccc5)cc3C(=O)c3ccc5ccccc5c3)CS4)nnc2SC1	MCF7 cells	annexin V/PI flow cytometry	IC50, 48 h	–	necrotic cells	7.35%
COC(=O)C1=CO[C@@H](O)[C@@H]2C(Cn3cc(-c4ccc(F)cc4)nn3)=CC[C@H]12	SK-N-SH	neuroprotection, MTT	0.075 µM, 24 h, together with: 250 µM H2O2	–	viability	50.9 ± 1.2%
Cc1cccc(O)c1C(=O)OCC1(O)C(Nc2ccc3c(c2)Cc2ccccc2-3)C(N)C(NC(=O)N(C)C)(C(C)O)C1(C)O (stereo not shown)	SNB-19	cell growth or viability, SRB	–	–	GI50	1.4 µM
O=c1c(NCCc2ccccc2)c(NC2CCN(Cc3ccccc3)CC2)c1=O	SH-SY5Y	neuroprotection, MTT	12.5 µM, 24 h pretreatment, together with: H2O2 650 µM for 4 h	–	cell survival	58.1%
CC(C)c1cnn2c(NCc3ccccc3)cc(N[C@@H](CO)[C@H](O)CO)nc12	HCT-116 resistant to compound	flow cytometry	–	relative to: parental HCT-116	ABCB1 expression	1.7 fold
COC1CC(OC2CCC3(C)C(CCC45OC46CCC(C(C)=O)C6(C)C(OC(C)=O)C(OC(=O)c4ccccc4)C35)C2)OC(C)C1OC1OC(C)C(O)C(OC)C1O (stereo not shown)	MDA435/LCC6-MDR1	cell growth, MDR reversal, SRB	10 µM, together with: paclitaxel	relative to: paclitaxel alone over combination	fold reversal of IC50	23
COC(=O)[C@H](CC(C)C)NC(=O)[C@@H]1CCCN1C(=O)[C@@H](NC(=O)[C@H](CCC(=O)C=[N+]=[N-])NC(=O)OCc1ccccc1)C(C)C	wild-type mouse medium spiny neurons	TUNEL	50 µM, 24 h after NMDA, baseline subtracted, together with: NMDA 500 µM for 10 min	–	apoptotic cells	9.8 ± 1.4%
CSCC[C@H](NC(=O)[C@H](CC(C)C)NC(=O)[C@H](Cc1c[nH]cn1)NC(=O)CNC(=O)[C@@H](NC(=O)[C@H](C)NC(=O)[C@H](Cc1c[nH]c2ccccc12)NC(=O)[C@H](CCC(N)=O)NC(=O)CCCCCCCNC(=O)CCC(=O)Nc1ccc(CNC23CNCCNCC(N)(CNCCNC2)CNCCNC3)cc1)C(C)C)C(N)=O [copper-64 labelled]	PC-3	–	15 min	relative to: internalization at 2 h	internalization	54%
CCCCCCCCCCCCCC(=O)NCC(=O)N[C@@H](CCCNC(=N)N)C(=O)N[C@@H](Cc1c[nH]c2ccccc12)C(=O)N[C@@H](CCCCN)C(=O)N[C@H](C(=O)N[C@@H](Cc1ccccc1)C(=O)N[C@@H](CCCCN)C(=O)N[C@@H](CCCCN)C(=O)N[C@H](C(=O)N[C@@H](CCC(=O)O)C(=O)N[C@@H](CCCCN)C(=O)N[C@H](C(=O)NCC(=O)N[C@@H](CCC(N)=O)C(=O)N[C@@H](CC(N)=O)C(=O)N[C@H](C(=O)N[C@@H](CCCNC(=N)N)C(=O)N[C@@H](CC(=O)O)C(=O)NCC(=O)N[C@H](C(=O)N[C@H](C(=O)N[C@@H](CCCCN)C(=O)N[C@@H](C)C(=O)NCC(=O)N1CCC[C@H]1C(=O)N[C@@H](C)C(=O)N[C@H](C(=O)N[C@@H](C)C(=O)N[C@H](C(=O)N[C@H](C(=O)NCC(=O)N[C@@H](CCC(N)=O)C(=O)N[C@@H](C)C(=O)N[C@@H](C)C(=O)N[C@H](C(=O)N[C@H](C(N)=O)[C@@H](C)CC)[C@@H](C)O)C(C)C)C(C)C)C(C)C)C(C)C)[C@@H](C)CC)[C@@H](C)CC)C(C)C)[C@@H](C)CC)[C@@H](C)CC	Jurkat	western blot	concentration not given, 16 h	–	Bcl-2 protein level	decreased
[Cl][Au].[Se]=c1n(C2CCCCC2)ccn1C1CCCCC1	A-431	cell growth or viability, MTT	72 h	–	IC50	3.5 µM
COC(=O)C1=CO[C@@H](OC(C)=O)[C@@H]2C(Cn3cc(CON4C(=O)c5ccccc5C4=O)nn3)=CC[C@H]12	SK-N-SH	neuroprotection, MTT	0.3 µM, 24 h, together with: 250 µM H2O2	–	viability	66.4 ± 0.1%
CC(C)C[C@H](NC(=O)[C@H](CO)NC(=O)[C@H](Cc1c[nH]c2ccccc12)NC(=O)[C@H](Cc1ccccc1)NC(=O)[C@H](Cc1ccccc1)NC(=O)[C@H](CCC(N)=O)NC(=O)[C@@H]1CCCN1C(=O)[C@H](CCCNC(=N)N)NC(=O)[C@H](CCCNC(=N)N)NC(=O)[C@H](CCCNC(=N)N)NC(=O)[C@H](CCC(N)=O)NC(=O)[C@H](CCCNC(=N)N)NC(=O)[C@H](CCCNC(=N)N)NC(=O)[C@H](CCCCN)NC(=O)[C@H](CCCCN)NC(=O)[C@H](CCCNC(=N)N)NC(=O)CNC(=O)[C@@H](N)Cc1ccc(O)cc1)C(=O)N[C@@H](CS)C(=O)N[C@H](C(=O)N[C@@H](C)C(=O)O)[C@@H](C)O	Jurkat	trypan blue exclusion	7.5 µM, 17 h, together with: zVAD-fmk 50 µM 30 min pretreatment	–	viable cells	11%

SMILES	cell line	assay	conditions	how to read	endpoint	result
Cc1cc(C)c(-n2ccn(-c3c(C)cc(C)cc3C)c2=[Se])c(C)c1.[Cl][Ag]	LoVo MDR	MTT	–	relative to: LoVo MDR over LoVo	resistance factor	0.9
COC(=O)C1=CO[C@@H](OC(C)=O)[C@@H]2C(Cn3cc(CCCCN4C(=O)c5ccccc5C4=O)nn3)=CC[C@H]12	SK-N-SH	neuroprotection, MTT	0.075 µM, 24 h, together with: 250 µM H2O2	–	viability	50.7 ± 0.5%
COc1ccccc1/C=C/[N+](=O)[O-]	OCI-AML2	cell growth or viability	72 h	–	CC50	2.35 µM
C[OH+][Cu-2]12[O]C(c3cn(-c4ccccc4)nc3-c3ccccc3)=N[N+]1=C(C)c1c(cc(C)oc1=O)[O]2 (stereo not shown)	A549 and Vero cells	cell viability, MTT	–	relative to: IC50 Vero over IC50 A549	selectivity index	7.6
Cc1cc(N)c2ccccc2[n+]1CCCCCCCCCCCCCC[n+]1c(C)cc(N)c2ccccc21	neuroblastoma tumour-initiating cells	sphere formation	–	relative to: SMS-KCNR over tumour-initiating cells	EC50 ratio	2.4 fold
CCCCCCCCOCc1cn(CC2=CC[C@@H]3C(C(=O)OC)=CO[C@@H](OC(C)=O)[C@H]23)nn1	SK-N-SH	neuroprotection, MTT	0.075 µM, 24 h, together with: 250 µM H2O2	–	viability	56.1 ± 0.5%
CN(C)C1=[S+][Au-]2([S]1)[c]1ccccc1P(c1ccccc1)(c1ccccc1)=[N+]2c1ccccc1.F[P-](F)(F)(F)(F)F (stereo not shown)	human PBMC	annexin V flow cytometry	0.5 µM, 24 h	–	cell death	17%
COc1cc(C)cc2c1OCO2	SK-OV-3	cell growth or viability, MTT	72 h	–	GI50	> 250 µM
Cc1ccc2c(Nc3ccc4ccccc4n3)c3c(nc2c1)CCCC3	SH-SY5Y	MTT	50 µM, 1 h pretreatment, 10% FBS, together with: H2O2	–	viability	57.5 ± 4.36%
CN1C(=O)C2(Cc3ccc(CC45SSC(CO)(C(=O)N4C)N(C)C5=O)cc3)SSC1(CO)C(=O)N2C (racemic)	MCF7 cells	microarray	600 nM, fold change at least 4.0, together with: DFO 300 µM	relative to: DFO alone	number of down-regulated transcripts	6
C=C(C)CC(OC)C(O)C(=O)NC(OC)C1CC(=NOC)C(C)(C)C(CC(O)C(C)C2Cc3c(C)c(O)cc(O)c3C(=O)O2)O1 (single isomer, unassigned; (+))	H522-T1	cell growth or viability	–	–	IC50	0.0008 µM
COc1ccc2cc1Oc1cc3c(cc1OC)CCN(C)C3Cc1ccc(cc1)Oc1c(O)c(OC)cc3c1C(C2)N(C)CC3 (stereo not shown)	HEK293	–	–	relative to: HEK293 CC50 over parasite IC50	selectivity index	> 100 fold
COc1c(C)cc2c(c1OC)OCO2	SK-OV-3	cell growth or viability, MTT	72 h	–	GI50	> 250 µM
COC(=O)C1=CO[C@@H](O)[C@@H]2C(Cn3cc(C4(O)CCCC4)nn3)=CC[C@H]12	SK-N-SH	neuroprotection, MTT	0.6 µM, 24 h, together with: 250 µM H2O2	–	viability	77.2 ± 0.9%
CSCC[C@H](NC(=O)[C@H](CC(C)C)NC(=O)[C@H](Cc1c[nH]cn1)NC(=O)CNC(=O)[C@@H](NC(=O)[C@H](C)NC(=O)[C@H](Cc1c[nH]c2ccccc12)NC(=O)[C@H](CCC(N)=O)NC(=O)CCCCCNC(=O)CCN(CCNC(=O)c1ccc(F)cc1)CCC(=O)NCCCC[C@@H]1NC(=O)[C@@H](Cc2ccc(O)cc2)NC(=O)[C@H](CC(=O)O)NC(=O)CNC(=O)[C@H](CCCNC(=N)N)NC1=O)C(C)C)C(N)=O [fluorine-18 labelled]	PC-3	–	60 min, 37 °C	relative to: added radioactivity	cellular uptake	4.68 ± 0.26%
CC1(C)CC([n+]2cc([NH-])on2)CC(C)(C)N1O	human trabecular meshwork cells	cell proliferation	together with: TBHP 300 µM	–	highest proliferative concentration	≤ 16 µM
COC(=O)C1=CO[C@@H](O)[C@@H]2C(Cn3cc(CON4C(=O)c5ccccc5C4=O)nn3)=CC[C@H]12	SK-N-SH	neuroprotection, MTT	0.15 µM, 24 h, together with: 250 µM H2O2	–	viability	70.9 ± 1.3%
Cc1cccc(Nc2c3c(nc4ccccc24)CCC(C)C3)n1 (stereo not shown)	SH-SY5Y	MTT	50 µM, 1 h pretreatment, 10% FBS, together with: H2O2	–	viability	67.8 ± 5.28%

Excerpt of the above:
SMILES	cell line	assay	conditions	how to read	endpoint	result
CC/C=C\C/C=C\C/C=C\C/C=C\C/C=C\C/C=C\CCC(=O)Nc1ccn(C2OC(CO)C(O)C2(F)F)c(=O)n1 (stereo not shown)	SR	NCI60 screen	–	–	CC50	> 100 µM
Cc1cccc(C)c1OCC(=O)N[C@@H](Cc1ccccc1)[C@H](C[C@H](Cc1ccccc1)NC(=O)[C@H](C(C)C)N1CCCNC1=O)OC(=O)[C@H](CC(C)C)NC(=O)[C@@H](N)Cc1cnc[nH]1	MDCK-MDR1, MDCK-MRP2 and Caco-2 cells	transport, inhibitor	25 µM, unlabelled L-histidine 10 mM, together with: [3H]-L-histidine	–	inhibition	~30%
